# Results collected from several papers.
# A part holds a random share of what one study measured. Changes are numbered by the printed parent chain.

# Study 1 — target: CCNF, cyclin fold, Cln2 fusion (human); technique: yeast growth competition, sequencing; medium: yeast; setting: strong parent motif; reference: not given; direction: higher = stronger binding
# Starting sequence: RBL1 docking peptide (human); GSAKRRLFGEDPP
Change,normalised enrichment score
G9H,6.92
R5E,-0.152
R5H,0.492
G9I,8.77
F8M,0.988
E10R,6.46
A3S,3.55
F8P,1.27

# Study 2 — technique: protein binding microarray; form: double-stranded DNA, one strand shown; medium: in vitro; concentration: not given; reference: not given; direction: higher = stronger binding
# Target: Histone acetyltransferase KAT6A, winged helix 1, GST fusion (KAT6A, Homo sapiens, UniProt Q92794, residues 1-85)
# Setting: 8-mer, flanks averaged, mean of 2 arrays, mostly near background
# Target sequence (chain): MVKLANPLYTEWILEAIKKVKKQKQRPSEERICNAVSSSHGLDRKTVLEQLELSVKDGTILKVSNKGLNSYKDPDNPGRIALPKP
Strand,E-score
CAATCATG,-0.206
ATAACAGA,-0.145
ACGCCACA,0.053
CATCACGC,0.14
CACAGGTC,-0.2
AGTGTGGA,-0.163
CTACAGTC,-0.113
AACCCGGT,0.299
ATTGACGA,-0.0881
GCCCGGGA,0.33
CCTCAGTC,-0.211
AGCGAGAC,0.032
CCTTCCCG,0.243
ACAGGAGC,-0.0817

# Study 3 — target: DBP, bZIP domain (human); technique: DHFR protein complementation; medium: yeast; reference: wild-type JUN-FOS pair; direction: higher = stronger binding
# Setting: single substitutions, most at no-binding floor
# Starting sequence: JUN, bZIP domain (human); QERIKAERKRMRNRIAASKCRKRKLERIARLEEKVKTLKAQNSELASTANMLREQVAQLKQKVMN; partner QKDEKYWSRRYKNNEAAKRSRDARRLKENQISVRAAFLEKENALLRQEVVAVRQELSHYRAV
Change,binding fitness [natural log]
N42W,-1.59
K36H,-1.39
L59W,-1.42
E32S,-1.38
A40P,-1.5
A40V,-1.27

# Other studies, line by line
Substance,target,assay,system,setting,how to read,measurement,result
"PhoQ, residues 284 288 289 292 302 303 TNASYF","PhoP, residues 12 14 15 18 19 LHSVQ (Escherichia coli, UniProt P23836)","Sort-seq, measured: YFP reporter",E. coli,"PhoQ-PhoP variant library, added: 10 µM Mg2+","reference: high Mg2+ state, higher = stronger signaling",fold induction,9.86
